# Experimental data of several laboratories.
# Compare with care: the assays were run in different laboratories. Bridge positions count the residues as written; N and C are the ends. Ends that are not written are not given here. * marks the point of attachment.
# Organism: Staphylococcus aureus
Substance,assay,test system,conditions,scale,endpoint,result
CCCCCCOc1c(OC)cc(NC(C)CCCNC(=O)C(N)Cc2ccccc2)c2nc(C(C)(C)C)ccc12 (stereo not shown),microbial killing,ATCC33591 MRSA,drug-resistant strain,,MBC,20 µg/mL
CC[C@H](C)[C@H](NC(=O)[C@H](C)NC(=O)[C@@H](NC(=O)[C@H](C)NC(=O)CNC(C)=O)[C@@H](C)O)C(=O)N[C@@H](CCCCN)C(=O)N[C@@H](CCC(N)=O)C(=O)N[C@H](C(=O)N[C@@H](CCCCN)C(=O)N[C@@H](CCCCN)C(=O)N[C@@H](CC(C)C)C(=O)N[C@@H](Cc1ccccc1)C(=O)N[C@@H](CCCCN)C(=O)N[C@@H](CCCCN)C(=O)N[C@@H](CCCCN)C(=O)NCC(=O)NCC(N)=O)C(C)C,broth microdilution,ATCC 25923,"24 h, 37 °C",,MIC50,78 µM
CCCCCCCCOc1c(OC)cc(NC(C)CCCNC(=O)C(N)CCSC)c2nc(C(C)(C)C)ccc12 (stereo not shown),microbial growth,ATCC33591 MRSA,drug-resistant strain,,IC50,10.7 µg/mL
COc1ccc(C2CC(c3ccccc3)=NN2c2ccc(S(N)(=O)=O)cc2)cc1 (stereo not shown),"bacterial invasion of cells, flow cytometry","HUVEC, MSSA ATCC 29213",,,IC50,5.4 µM
CCCCCCCCOc1c(OC)cc(NC(C)CCCN)c2nc(C(C)(C)C)cc(C)c12 (stereo not shown),bacterial growth,MRSA ATCC 33591,,,IC50,> 20 µg/mL
C[C@@H](O)[C@H]1C(=O)N2C(C(=O)O)=C(S[C@@H]3CN[C@H](C(=O)N(C)C)C3)[C@H](C)[C@H]12,checkerboard titration,ATCC 38591 oxacillin-resistant,added: ranalexin,,FIC index,1.5
CC(C)C[C@H](NC(=O)[C@H](CCCCN)NC(=O)[C@H](CCCCN)NC(=O)[C@H](CC(C)C)NC(=O)[C@H](CCCCN)NC(=O)[C@@H](N)CCCNC(=N)N)C(=O)N[C@@H](Cc1c[nH]c2ccccc12)C(=O)N[C@@H](CCCNC(=N)N)C(=O)N[C@@H](CCCCN)C(=O)N[C@@H](Cc1ccccc1)C(=O)N[C@@H](CCCNC(=N)N)C(=O)O,"bacterial killing, colony count",ATCC 12600,"1 h, pH 7, 37 °C",,EC50,0.4 µg/mL
"Myristoyl-ACPIFTKIQGTYRGKAKCK (disulfide 2-18 (inferred)) (N-myristoyl, disulfide; Myristoyl = CCCCCCCCCCCCCC(=O)*)",,ATCC 8530,"MBC, 2 h, pH 7.4, 37 °C, added: E. coli K-235 LPS at peptide:LPS 1:10 w/w",,antibacterial activity,inhibited
eremomycin,,"10, female SHK mice, sepsis","intravenous, 30 min after infection, 10 days observation",,ED50,2 mg/kg
CCCCCOc1c(OC)cc(NC(C)CCCNC(=O)C(N)C(C)CC)c2nc(C(C)(C)C)ccc12 (stereo not shown),microbial killing,ATCC33591 MRSA,drug-resistant strain,,MBC,10 µg/mL
CC(C)C[C@H](NC(=O)[C@H](CCCNC(=N)N)NC(=O)[C@H](CCCCN)NC(=O)[C@@H](N)Cc1c[nH]c2ccccc12)C(=O)N[C@@H](CCCNC(=N)N)C(=O)N[C@@H](Cc1c[nH]c2ccccc12)C(=O)N[C@@H](CCCNC(=N)N)C(=O)N[C@@H](CCCNC(=N)N)C(=O)N[C@@H](Cc1ccccc1)C(=O)N[C@@H](Cc1ccccc1)C(=O)O,"bacterial killing, colony count",ATCC 12600,"1 h, pH 7, 37 °C",,EC50,16.5 µg/mL
CCCCCOc1c(OC)cc(NC(C)CCCNC(=O)C(N)CCCN)c2nc(C(C)(C)C)ccc12 (stereo not shown),,MRSA ATCC 33591,,,MBC,> 20 µg/mL
CC[C@H](C)[C@H](NC(=O)[C@@H](NC(=O)CN)C(C)C)C(=O)N[C@@H](Cc1ccccc1)C(=O)N[C@@H](CC(N)=O)C(=O)N[C@@H](C)C(=O)N[C@@H](CC(C)C)C(=O)N[C@@H](CCCCN)C(=O)NCC(=O)N[C@H](C(=O)N[C@@H](C)C(=O)N[C@@H](CCCCN)C(=O)N[C@H](C(=O)N[C@H](C(=O)N[C@@H](C)C(=O)N[C@@H](C)C(=O)N[C@@H](CCC(N)=O)C(=O)N[C@@H](CC(C)C)C(=O)N[C@@H](CC(C)C)C(=O)N[C@@H](CCCCN)C(N)=O)C(C)C)[C@@H](C)O)C(C)C,persister cells in biofilm,MRSA NCTC 12493,added: vancomycin 4 µg/mL,,MBEC,> 512 µM
COc1cc(NC(C)CCCN)c2nc(C(C)(C)C)ccc2c1Oc1ccc(Cl)c(Cl)c1 (stereo not shown),microbial growth,ATCC33591 MRSA,drug-resistant strain,,IC50,5.64 µg/mL
CC[C@H](C)[C@H](NC(=O)[C@H](CCCCN)NC(=O)[C@H](CCC(=O)O)NC(=O)[C@H](CCCCN)NC(=O)[C@H](CO)NC(=O)[C@H](CCCCN)NC(=O)[C@H](CCCNC(=N)N)NC(=O)[C@H](Cc1ccccc1)NC(=O)[C@H](Cc1ccccc1)NC(=O)[C@H](CC(=O)O)NC(=O)CNC(=O)[C@H](CC(C)C)NC(=O)[C@@H](N)CC(C)C)C(=O)NCC(=O)N[C@@H](CCCCN)C(=O)N[C@@H](CCC(=O)O)C(=O)N[C@@H](Cc1ccccc1)C(=O)N[C@@H](CCCCN)C(=O)N[C@@H](CCCNC(=N)N)C(=O)N[C@H](C(=O)N[C@H](C(=O)N[C@@H](CCC(N)=O)C(=O)N[C@@H](CCCNC(=N)N)C(=O)N[C@H](C(=O)N[C@@H](CCCCN)C(=O)N[C@@H](CC(=O)O)C(=O)N[C@@H](Cc1ccccc1)C(=O)N[C@@H](CC(C)C)C(=O)N[C@@H](CCCNC(=N)N)C(=O)N[C@@H](CC(N)=O)C(=O)N[C@@H](CC(C)C)C(=O)N[C@H](C(=O)N1CCC[C@H]1C(=O)N[C@@H](CCCNC(=N)N)C(=O)N[C@H](C(=O)N[C@@H](CCC(=O)O)C(=O)N[C@@H](CO)C(=O)O)[C@@H](C)O)C(C)C)[C@@H](C)CC)C(C)C)[C@@H](C)CC,,JE2 SAUSA300_1515 transposon mutant,12.5% TSB,baseline: wild type over mutant,MIC ratio,2 fold
CCCCCCCCOc1c(OC)cc(NC(C)CCCNC(=O)C(N)C(C)CC)c2nc(C(C)(C)C)ccc12 (stereo not shown),microbial growth,ATCC33591 MRSA,drug-resistant strain,,IC50,15.3 µg/mL
"Myristoyl-SCLPKEEQIGKSTRGRKCRRKK (disulfide 2-18 (inferred)) (N-myristoyl, disulfide; Myristoyl = CCCCCCCCCCCCCC(=O)*)",,ATCC 8530,"MBC, 2 h, pH 7.4, 37 °C, added: E. coli K-235 LPS at peptide:LPS 1:5 w/w",,antibacterial activity,inhibited
CC[C@H](C)[C@H](N)C(=O)N[C@@H](CC(C)C)C(=O)N1CCC[C@H]1C(=O)N[C@@H](Cc1c[nH]c2ccccc12)C(=O)N[C@@H](CCCCN)C(=O)N[C@@H](Cc1c[nH]c2ccccc12)C(=O)N1CCC[C@H]1C(=O)N[C@@H](Cc1c[nH]c2ccccc12)C(=O)N[C@@H](Cc1c[nH]c2ccccc12)C(=O)N1CCC[C@H]1C(=O)N[C@@H](Cc1c[nH]c2ccccc12)C(=O)N[C@@H](CCCNC(=N)N)C(=O)N[C@@H](CCCNC(=N)N)C(N)=O,broth microdilution,"methicillin-resistant clinical isolates, Mueller-Hinton broth","18 h, 35 °C",,MIC50,8 µg/mL
CCCCCCCOc1c(OC)cc(NC(C)CCCNC(=O)C(N)CCCN)c2nc(C(C)(C)C)ccc12 (stereo not shown),,MRSA ATCC 33591,,,MBC,> 20 µg/mL
CO/N=C(\C(=O)N[C@@H]1C(=O)N2C(C(=O)O)=C(CSc3nc(=O)c(=O)[nH]n3C)CS[C@H]12)c1csc(N)n1,checkerboard broth microdilution,ATCC 38591 oxacillin-resistant,added: magainin II,,FIC index,0.25
CC[C@H](C)[C@H](NC(=O)[C@H](C)NC(=O)[C@@H](NC(=O)[C@H](C)NC(=O)CN)[C@@H](C)O)C(=O)N[C@@H](CCCCN)C(=O)N[C@@H](CCC(N)=O)C(=O)N[C@H](C(=O)N[C@@H](CCCCN)C(=O)N[C@@H](CCCCN)C(=O)N[C@@H](CC(C)C)C(=O)N[C@@H](Cc1ccccc1)C(=O)N[C@@H](CCCCN)C(=O)N[C@@H](CCCCN)C(=O)N[C@@H](CCCCN)C(=O)NCC(=O)NCC(N)=O)C(C)C,broth microdilution,ATCC 25923,"24 h, 37 °C",,MIC50,78 µM
C[C@H]1c2cccc(O)c2C(=O)C2=C(O)[C@]3(O)C(=O)C(C(N)=O)=C(O)[C@@H](N(C)C)[C@@H]3[C@@H](O)[C@@H]21,checkerboard broth microdilution,ATCC 38591 oxacillin-resistant,added: magainin II,,FIC index,1
vancomycin,,"10, female SHK mice, sepsis","intravenous, 30 min after infection, 10 days observation",,dose for 100% survival,6.5 mg/kg
CC[C@H](C)[C@H](NC(=O)CNC(=O)[C@H](CCC(=O)O)NC(=O)[C@H](CO)NC(=O)[C@@H](NC(=O)[C@H](CCCNC(=N)N)NC(=O)[C@H](CCCCN)NC(=O)[C@H](CCCCN)NC(=O)[C@H](C)NC(=O)[C@H](CO)NC(=O)[C@H](CC(N)=O)NC(=O)[C@H](CCC(=O)O)NC(=O)[C@H](CC(C)C)NC(=O)[C@H](CCCCN)NC(=O)[C@H](CCCCN)NC(=O)[C@H](C)NC(=O)[C@@H](NC(=O)[C@H](CCCCN)NC(=O)[C@H](CO)NC(=O)[C@H](CC(C)C)NC(=O)[C@H](Cc1c[nH]c2ccccc12)NC(=O)[C@@H](N)CO)[C@@H](C)O)[C@@H](C)CC)C(=O)N[C@@H](C)C(=O)N[C@H](C(=O)N[C@@H](C)C(=O)N[C@H](C(=O)N[C@@H](CCC(N)=O)C(=O)NCC(=O)NCC(=O)N1CCC[C@H]1C(=O)N[C@@H](CCCNC(=N)N)C(=O)O)[C@@H](C)CC)[C@@H](C)CC,broth microdilution,"methicillin-resistant clinical isolates, Mueller-Hinton broth","18 h, 35 °C",,MIC50,32 µg/mL
CC[C@H](C)[C@H](NC(=O)[C@@H](NC(=O)CN)C(C)C)C(=O)N[C@@H](Cc1ccccc1)C(=O)N[C@@H](CC(N)=O)C(=O)N[C@@H](C)C(=O)N[C@@H](CC(C)C)C(=O)N[C@@H](CCCCN)C(=O)NCC(=O)N[C@H](C(=O)N[C@@H](C)C(=O)N[C@@H](CCCCN)C(=O)N[C@H](C(=O)N[C@H](C(=O)N[C@@H](C)C(=O)N[C@@H](C)C(=O)N[C@@H](CCC(N)=O)C(=O)N[C@@H](CC(C)C)C(=O)N[C@@H](CC(C)C)C(=O)N[C@@H](CCCCN)C(=O)N[C@@H](CCCCN)C(=O)N[C@@H](C)C(=O)N[C@@H](CCCNC(=N)N)C(N)=O)C(C)C)[C@@H](C)O)C(C)C,persister cells in biofilm,MRSA NCTC 12493,added: vancomycin 4 µg/mL,,MBEC,256 µM

# For quick reference, copied from above:
Substance,assay,test system,conditions,scale,endpoint,result
CC[C@H](C)[C@H](NC(=O)[C@H](C)NC(=O)[C@@H](NC(=O)[C@H](C)NC(=O)CNC(C)=O)[C@@H](C)O)C(=O)N[C@@H](CCCCN)C(=O)N[C@@H](CCC(N)=O)C(=O)N[C@H](C(=O)N[C@@H](CCCCN)C(=O)N[C@@H](CCCCN)C(=O)N[C@@H](CC(C)C)C(=O)N[C@@H](Cc1ccccc1)C(=O)N[C@@H](CCCCN)C(=O)N[C@@H](CCCCN)C(=O)N[C@@H](CCCCN)C(=O)NCC(=O)NCC(N)=O)C(C)C,broth microdilution,ATCC 25923,"24 h, 37 °C",,MIC50,78 µM
"Myristoyl-ACPIFTKIQGTYRGKAKCK (disulfide 2-18 (inferred)) (N-myristoyl, disulfide; Myristoyl = CCCCCCCCCCCCCC(=O)*)",,ATCC 8530,"MBC, 2 h, pH 7.4, 37 °C, added: E. coli K-235 LPS at peptide:LPS 1:10 w/w",,antibacterial activity,inhibited
CC(C)C[C@H](NC(=O)[C@H](CCCNC(=N)N)NC(=O)[C@H](CCCCN)NC(=O)[C@@H](N)Cc1c[nH]c2ccccc12)C(=O)N[C@@H](CCCNC(=N)N)C(=O)N[C@@H](Cc1c[nH]c2ccccc12)C(=O)N[C@@H](CCCNC(=N)N)C(=O)N[C@@H](CCCNC(=N)N)C(=O)N[C@@H](Cc1ccccc1)C(=O)N[C@@H](Cc1ccccc1)C(=O)O,"bacterial killing, colony count",ATCC 12600,"1 h, pH 7, 37 °C",,EC50,16.5 µg/mL
